Published values of several laboratories.
Numbered parts are unrelated; each lists some results of a single study.

Block 1
Target: PABPC1L2, full length, GST fusion (mouse, UniProt A0ABA7IW68)
Technique: RNAcompete
Molecule type: RNA
Sample: in vitro
Tested at: 20 nM
Notes: 7-mer, probes averaged, single round
Relative to: mean of 7-mers
Reading: higher = stronger binding
Quantity: 7-mer Z-score
Target sequence (chain): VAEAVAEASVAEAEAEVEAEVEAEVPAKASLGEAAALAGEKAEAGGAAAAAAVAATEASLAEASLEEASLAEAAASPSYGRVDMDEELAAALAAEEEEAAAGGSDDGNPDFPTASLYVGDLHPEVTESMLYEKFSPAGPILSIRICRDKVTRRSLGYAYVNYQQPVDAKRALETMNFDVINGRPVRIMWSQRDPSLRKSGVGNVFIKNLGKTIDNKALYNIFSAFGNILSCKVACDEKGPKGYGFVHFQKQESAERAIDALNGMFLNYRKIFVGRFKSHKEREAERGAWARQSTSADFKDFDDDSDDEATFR
UUAUCUA: -0.166
CCAACAA: 0.352
CUUCACA: -0.159
GGAUUCA: -0.0609
UAGCGGG: 0.0424
UACAGAC: -0.155
CGCCGCA: -0.202
GGACUGG: 0.222

Block 2
Target: High affinity nerve growth factor receptor (NTRK1, Homo sapiens, UniProt P04629)
Chain of UniProt P04629 (whole entry, looked up): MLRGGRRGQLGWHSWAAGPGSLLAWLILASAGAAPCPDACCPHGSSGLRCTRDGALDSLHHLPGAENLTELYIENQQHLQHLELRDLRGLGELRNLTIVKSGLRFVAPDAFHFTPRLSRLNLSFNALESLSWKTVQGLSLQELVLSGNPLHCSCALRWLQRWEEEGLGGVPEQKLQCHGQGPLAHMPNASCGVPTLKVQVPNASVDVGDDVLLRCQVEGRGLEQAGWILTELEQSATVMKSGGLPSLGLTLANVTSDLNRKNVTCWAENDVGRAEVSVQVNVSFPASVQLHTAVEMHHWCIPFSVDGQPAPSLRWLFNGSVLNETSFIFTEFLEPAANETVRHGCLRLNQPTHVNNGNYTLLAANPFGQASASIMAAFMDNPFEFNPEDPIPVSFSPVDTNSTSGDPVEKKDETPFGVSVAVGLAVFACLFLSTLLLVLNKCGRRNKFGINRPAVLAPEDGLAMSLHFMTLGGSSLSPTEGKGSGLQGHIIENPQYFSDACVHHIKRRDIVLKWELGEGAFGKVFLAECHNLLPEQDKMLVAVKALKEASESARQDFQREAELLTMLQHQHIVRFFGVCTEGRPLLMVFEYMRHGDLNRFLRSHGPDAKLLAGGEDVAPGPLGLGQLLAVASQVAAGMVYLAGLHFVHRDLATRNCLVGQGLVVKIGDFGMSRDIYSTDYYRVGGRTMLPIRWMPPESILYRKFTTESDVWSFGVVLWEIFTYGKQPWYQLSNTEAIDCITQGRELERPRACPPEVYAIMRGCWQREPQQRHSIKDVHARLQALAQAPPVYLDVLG
Observed: enzyme activity
Action: inhibitor
Tested at: 0.5 µM
Relative to: control
Quantity: remaining activity
N#Cc1cnc2cnc(NCc3cccnc3)cc2c1Nc1ccc(F)c(Cl)c1: 96.2%
COc1cccc(-c2cc(=O)c3ccccc3o2)c1N: 99.9%
CCCNC(=O)Nc1ccc(Oc2ncnc3cc(OC)c(OC)cc23)cc1Cl: 93.2%
O=C1NC(=O)c2c1c1c3ccccc3[nH]c1c1[nH]c3cc(Br)ccc3c21: 82.2%
CN1CCN(c2ccc3nc(-c4c(N)c5c(F)cccc5[nH]c4=O)[nH]c3c2)CC1: 4.57%
O=C1Nc2ccccc2/C1=C\c1c(Cl)[nH]c2ccccc12: 90.7%
c1ccc(-c2n[nH]c3c2oc2ccccc23)cc1: 85.6%

Block 3
Target: Interferon regulatory factor 5, full length, phosphomimetic (IRF5, Homo sapiens, UniProt Q13568-2, residues 1-514, K96S/S451D/S453D/S456D/S462D)
Technique: protein-binding microarray
Molecule type: double-stranded DNA, one strand shown
Sample: in vitro
Tested at: 250 nM
Notes: 60-bp whole probe
Added: salmon DNA 0.4 mg/ml
Relative to: random background probes
Reading: higher = stronger binding
Quantity: log fluorescence
Shared flanks, not repeated: GCCTAGCAC … GTCTTGATTCGCTTGACGCTGCTG
TTAGGACTGGGGTTTCCGTTAGTGCTA: 0.199 z-score
TCACCTTTCAGTTTTCCACTGTGCTAG: 2.43 z-score
TCAGGACTGCTTATCCTTTAGTGCTAG: -0.164 z-score
TTAGGTTTCCTTATCCTTTGGTGCTAG: 0.948 z-score
TTAGGTCTCCCTTTCCTTTAGTGCTAG: 0.263 z-score
GACGTTTTCGGTTTCGGGACGTGCTAG: 10 z-score
GACGATTGCAGTTCCGAGACGTGCTAG: 0.091 z-score
GACGATCGCAGACTGGAGACGTGCTAG: -0.48 z-score

Block 4
Target: 5-hydroxytryptamine receptor 6 (HTR6, Homo sapiens, UniProt P50406)
Chain of UniProt P50406 (whole entry, looked up): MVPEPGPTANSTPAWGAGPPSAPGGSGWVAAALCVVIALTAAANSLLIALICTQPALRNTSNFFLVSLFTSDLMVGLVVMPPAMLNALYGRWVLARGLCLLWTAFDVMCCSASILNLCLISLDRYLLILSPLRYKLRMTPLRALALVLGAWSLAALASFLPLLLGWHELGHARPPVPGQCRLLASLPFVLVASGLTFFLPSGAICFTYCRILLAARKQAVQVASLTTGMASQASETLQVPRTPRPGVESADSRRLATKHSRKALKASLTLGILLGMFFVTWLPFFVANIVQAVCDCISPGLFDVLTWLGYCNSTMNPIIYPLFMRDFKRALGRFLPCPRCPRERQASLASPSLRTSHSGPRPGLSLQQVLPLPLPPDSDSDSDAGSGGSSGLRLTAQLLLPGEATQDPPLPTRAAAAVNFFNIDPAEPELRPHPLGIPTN
Observed: ligand displacement
Tested at: 10 µM
Quantity: inhibition
O=C(N[C@H]1CCCCC/C=C\C2C[C@@]2(C(=O)O)NC(=O)[C@@H]2C[C@@H](Oc3ccncc3)CN2C1=O)OC1CCCC1 (some centres unmarked): -7.71%
Cn1nc(C(=O)NCc2ccc(C(=O)O)cc2)cc1-c1ccc2[nH]ccc2c1: 8.85%
COCCOc1nc(-c2ccc(Cl)nc2)nc2c1CN(C(=O)c1ncn3ccccc13)CC2: -4.55%
